# Published values pooled from the literature.
# Numbered parts are unrelated; each lists some results of a single study.
# Chain of UniProt Q9NRP7 (whole entry, looked up): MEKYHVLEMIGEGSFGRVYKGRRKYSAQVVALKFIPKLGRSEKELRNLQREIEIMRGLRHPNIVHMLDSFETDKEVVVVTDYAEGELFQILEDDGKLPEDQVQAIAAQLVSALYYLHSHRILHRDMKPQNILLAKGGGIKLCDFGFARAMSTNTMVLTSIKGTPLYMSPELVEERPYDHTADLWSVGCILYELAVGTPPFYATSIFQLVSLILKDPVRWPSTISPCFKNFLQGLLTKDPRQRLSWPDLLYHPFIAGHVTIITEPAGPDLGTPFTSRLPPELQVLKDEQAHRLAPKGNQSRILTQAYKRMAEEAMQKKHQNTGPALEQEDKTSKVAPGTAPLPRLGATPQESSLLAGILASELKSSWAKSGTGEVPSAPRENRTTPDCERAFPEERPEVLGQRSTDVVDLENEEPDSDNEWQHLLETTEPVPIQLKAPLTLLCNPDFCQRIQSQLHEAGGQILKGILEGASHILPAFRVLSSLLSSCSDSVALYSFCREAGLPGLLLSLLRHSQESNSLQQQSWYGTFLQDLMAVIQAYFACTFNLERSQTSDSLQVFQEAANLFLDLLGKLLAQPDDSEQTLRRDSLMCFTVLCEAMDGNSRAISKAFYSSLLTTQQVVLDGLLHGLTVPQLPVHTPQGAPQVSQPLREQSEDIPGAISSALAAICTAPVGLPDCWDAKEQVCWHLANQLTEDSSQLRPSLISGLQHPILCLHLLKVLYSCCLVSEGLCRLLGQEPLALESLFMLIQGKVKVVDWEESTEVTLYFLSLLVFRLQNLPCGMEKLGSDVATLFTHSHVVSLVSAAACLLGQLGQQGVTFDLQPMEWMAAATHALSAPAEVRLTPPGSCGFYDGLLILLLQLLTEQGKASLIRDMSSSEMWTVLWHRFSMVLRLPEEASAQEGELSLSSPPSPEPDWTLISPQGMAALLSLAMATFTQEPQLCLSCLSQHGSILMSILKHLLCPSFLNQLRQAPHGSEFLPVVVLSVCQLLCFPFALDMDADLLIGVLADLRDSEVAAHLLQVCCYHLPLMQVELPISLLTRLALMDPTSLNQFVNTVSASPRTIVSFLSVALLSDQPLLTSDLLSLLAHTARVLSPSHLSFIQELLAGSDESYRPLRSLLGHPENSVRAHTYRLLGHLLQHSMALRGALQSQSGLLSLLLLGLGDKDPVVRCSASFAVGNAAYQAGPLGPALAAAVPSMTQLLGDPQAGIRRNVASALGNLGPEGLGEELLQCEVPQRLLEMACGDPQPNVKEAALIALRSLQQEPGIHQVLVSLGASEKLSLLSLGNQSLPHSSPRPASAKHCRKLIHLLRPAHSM
# Chain of UniProt Q16539 (whole entry, looked up): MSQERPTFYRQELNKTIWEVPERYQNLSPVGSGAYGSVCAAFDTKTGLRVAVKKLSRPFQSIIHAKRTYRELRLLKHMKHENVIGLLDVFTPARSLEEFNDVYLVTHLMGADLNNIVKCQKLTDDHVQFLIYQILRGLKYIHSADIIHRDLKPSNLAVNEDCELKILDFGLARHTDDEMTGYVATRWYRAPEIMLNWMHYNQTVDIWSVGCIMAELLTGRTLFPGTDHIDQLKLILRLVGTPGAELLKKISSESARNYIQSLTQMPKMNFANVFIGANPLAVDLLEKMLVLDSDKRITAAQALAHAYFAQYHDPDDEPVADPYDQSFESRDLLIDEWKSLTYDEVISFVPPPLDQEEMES
# Chain of UniProt O75821 (whole entry, looked up): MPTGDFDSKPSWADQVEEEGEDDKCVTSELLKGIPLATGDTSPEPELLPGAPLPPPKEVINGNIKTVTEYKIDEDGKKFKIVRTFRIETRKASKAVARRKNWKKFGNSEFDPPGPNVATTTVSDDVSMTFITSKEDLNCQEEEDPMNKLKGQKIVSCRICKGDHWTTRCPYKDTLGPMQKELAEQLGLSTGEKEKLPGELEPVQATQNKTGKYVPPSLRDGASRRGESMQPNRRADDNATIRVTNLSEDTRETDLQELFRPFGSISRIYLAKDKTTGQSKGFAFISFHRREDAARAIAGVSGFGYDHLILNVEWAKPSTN

# Series 1 — effect on: enzyme activity; action: inhibitor; concentration: 77 µM; relative to: untreated
# Target: DNA polymerase theta, ATPase domain (POLQ, Homo sapiens, UniProt O75417)
# Chain of UniProt O75417 (whole entry, unmodified, looked up): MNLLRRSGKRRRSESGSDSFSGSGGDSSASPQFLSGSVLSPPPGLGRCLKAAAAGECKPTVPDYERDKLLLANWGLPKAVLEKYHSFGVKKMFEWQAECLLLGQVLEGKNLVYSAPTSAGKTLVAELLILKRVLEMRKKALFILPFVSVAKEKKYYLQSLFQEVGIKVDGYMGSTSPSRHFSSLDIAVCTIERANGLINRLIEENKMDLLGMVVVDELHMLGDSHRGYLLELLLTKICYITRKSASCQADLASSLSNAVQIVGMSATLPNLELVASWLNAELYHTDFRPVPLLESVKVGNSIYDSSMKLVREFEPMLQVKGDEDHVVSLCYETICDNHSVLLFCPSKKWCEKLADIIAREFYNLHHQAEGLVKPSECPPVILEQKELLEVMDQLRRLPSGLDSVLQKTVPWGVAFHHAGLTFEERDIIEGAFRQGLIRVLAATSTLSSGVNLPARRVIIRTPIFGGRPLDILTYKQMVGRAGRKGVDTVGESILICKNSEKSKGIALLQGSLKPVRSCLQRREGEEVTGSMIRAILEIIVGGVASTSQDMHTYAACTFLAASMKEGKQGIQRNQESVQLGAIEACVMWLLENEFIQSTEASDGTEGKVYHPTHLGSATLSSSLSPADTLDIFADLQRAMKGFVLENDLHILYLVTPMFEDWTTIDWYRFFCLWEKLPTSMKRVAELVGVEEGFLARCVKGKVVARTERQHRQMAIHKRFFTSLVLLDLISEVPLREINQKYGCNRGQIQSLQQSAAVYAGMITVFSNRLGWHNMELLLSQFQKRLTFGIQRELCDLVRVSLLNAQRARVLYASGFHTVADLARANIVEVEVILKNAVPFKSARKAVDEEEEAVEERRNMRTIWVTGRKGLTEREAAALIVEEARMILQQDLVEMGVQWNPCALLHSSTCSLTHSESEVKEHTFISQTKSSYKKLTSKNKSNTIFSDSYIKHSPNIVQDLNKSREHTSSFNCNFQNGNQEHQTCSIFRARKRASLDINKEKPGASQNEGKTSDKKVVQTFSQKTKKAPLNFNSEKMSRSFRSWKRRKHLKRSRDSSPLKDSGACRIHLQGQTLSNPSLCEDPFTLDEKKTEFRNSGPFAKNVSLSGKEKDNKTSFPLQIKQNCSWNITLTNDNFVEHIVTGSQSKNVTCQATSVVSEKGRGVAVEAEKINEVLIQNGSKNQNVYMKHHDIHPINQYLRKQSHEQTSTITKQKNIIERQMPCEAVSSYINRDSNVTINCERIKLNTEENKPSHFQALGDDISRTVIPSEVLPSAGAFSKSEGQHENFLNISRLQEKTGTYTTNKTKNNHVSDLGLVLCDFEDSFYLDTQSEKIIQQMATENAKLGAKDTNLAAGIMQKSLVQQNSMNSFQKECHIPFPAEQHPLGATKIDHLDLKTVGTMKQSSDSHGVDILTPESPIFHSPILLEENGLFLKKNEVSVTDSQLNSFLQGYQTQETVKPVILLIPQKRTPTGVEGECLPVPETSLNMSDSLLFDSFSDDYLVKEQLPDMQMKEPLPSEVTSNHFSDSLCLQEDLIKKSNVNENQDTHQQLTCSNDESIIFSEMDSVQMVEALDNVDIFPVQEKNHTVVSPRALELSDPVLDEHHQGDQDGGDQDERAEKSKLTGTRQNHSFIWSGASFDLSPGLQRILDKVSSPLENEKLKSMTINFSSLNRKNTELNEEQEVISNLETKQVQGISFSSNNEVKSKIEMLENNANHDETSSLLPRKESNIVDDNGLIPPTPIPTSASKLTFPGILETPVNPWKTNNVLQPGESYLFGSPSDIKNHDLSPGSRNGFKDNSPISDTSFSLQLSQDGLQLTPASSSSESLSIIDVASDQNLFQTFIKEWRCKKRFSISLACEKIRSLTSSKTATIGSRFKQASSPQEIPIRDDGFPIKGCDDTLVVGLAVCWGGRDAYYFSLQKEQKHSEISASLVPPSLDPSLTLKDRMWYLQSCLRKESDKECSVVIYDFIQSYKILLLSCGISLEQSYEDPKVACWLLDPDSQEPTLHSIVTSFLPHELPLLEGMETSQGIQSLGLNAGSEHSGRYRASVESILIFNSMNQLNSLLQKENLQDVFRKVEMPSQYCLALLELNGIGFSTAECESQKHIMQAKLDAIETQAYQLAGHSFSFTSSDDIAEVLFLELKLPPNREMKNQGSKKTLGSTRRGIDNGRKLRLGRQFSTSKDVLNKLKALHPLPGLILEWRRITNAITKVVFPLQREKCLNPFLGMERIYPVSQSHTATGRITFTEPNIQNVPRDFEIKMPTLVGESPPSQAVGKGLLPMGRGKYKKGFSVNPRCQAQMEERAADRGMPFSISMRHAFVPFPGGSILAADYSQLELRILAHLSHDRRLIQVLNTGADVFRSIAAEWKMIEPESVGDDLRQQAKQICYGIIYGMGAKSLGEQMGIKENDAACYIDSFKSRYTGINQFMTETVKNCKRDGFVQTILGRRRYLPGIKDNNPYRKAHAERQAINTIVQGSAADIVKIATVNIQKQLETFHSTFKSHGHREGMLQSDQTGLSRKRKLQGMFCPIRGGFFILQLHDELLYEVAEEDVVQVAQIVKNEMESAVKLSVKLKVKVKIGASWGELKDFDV
SMILES,remaining activity
CCOC(=O)c1c(CSc2ccccc2)n(C)c2cc(Br)c(O)c(CN(C)C)c12,98.5%
CO[C@@H]1[C@@H](O[C@@H]2O[C@H](C)[C@@H](O[C@H]3C[C@@](C)(O)[C@@H](OC(=O)CC(C)C)[C@H](C)O3)[C@H](N(C)C)[C@H]2O)[C@@H](CC=O)C[C@@H](C)[C@@H](O)/C=C/C=C/C[C@@H](C)OC(=O)C[C@H]1OC(C)=O,91.6%
C[N+]1(C)[C@@H]2C[C@@H](OC(=O)C(O)(c3cccs3)c3cccs3)C[C@H]1[C@@H]1O[C@@H]12,92.2%
Cc1cn([C@H]2O[C@@H](CO)[C@H](O)[C@H]2F)c(=O)[nH]c1=O,103%

# Series 2 — concentration: 0.1 µM
# Structure (SMILES): CCOC(=O)c1cc2cc(-c3cc(C(=O)NCc4ccc(C(=O)O)cc4)nn3C)ccc2[nH]1
target,test,how to read,remaining binding [%]
"Megakaryocyte-associated tyrosine-protein kinase (MATK, Homo sapiens, UniProt P42679)","cell-free assay, competition with immobilised ligand",,96
"Dual specificity tyrosine-phosphorylation-regulated kinase 2 (DYRK2, Homo sapiens, UniProt Q92630)","cell-free assay, competition with immobilised ligand",,76
"Tyrosine-protein kinase HCK (HCK, Homo sapiens, UniProt P08631)","cell-free assay, competition with immobilised ligand",,100
"Activin receptor type-1-like (ACVRL1, Homo sapiens, UniProt P37023)","cell-free assay, competition with immobilised ligand",,68
"Ribosomal protein S6 kinase alpha-1, N-terminal kinase domain (RPS6KA1, Homo sapiens, UniProt Q15418)","cell-free assay, competition with immobilised ligand",,97
"Mitogen-activated protein kinase 14 (MAPK14, Homo sapiens, UniProt Q16539)","cell-free assay, competition with immobilised ligand",,100
"Serine/threonine-protein kinase PAK 5 (PAK5, Homo sapiens, UniProt Q9P286)","cell-free assay, competition with immobilised ligand",,95
"Serine/threonine-protein kinase PAK 6 (PAK6, Homo sapiens, UniProt Q9NQU5)","cell-free assay, competition with immobilised ligand",,99
"Serine/threonine-protein kinase TAO1 (TAOK1, Homo sapiens, UniProt Q7L7X3)","cell-free assay, competition with immobilised ligand",,90
"Phosphatidylinositol 4,5-bisphosphate 3-kinase catalytic subunit alpha isoform (PIK3CA, Homo sapiens, UniProt P42336, M1043I)","cell-free assay, competition with immobilised ligand",,100
"Myosin-IIIa (MYO3A, Homo sapiens, UniProt Q8NEV4)","binding, competition with immobilised ligand",,100
"Macrophage-stimulating protein receptor (MST1R, Homo sapiens, UniProt Q04912)","cell-free assay, competition with immobilised ligand",,100
"Serine/threonine-protein kinase Sgk1 (SGK1, Homo sapiens, UniProt O00141)","cell-free assay, competition with immobilised ligand",,100
"Tyrosine-protein kinase ABL1, phosphorylated (ABL1, Homo sapiens, UniProt P00519, F317L)","cell-free assay, competition with immobilised ligand",,100
"BMP-2-inducible protein kinase (BMP2K, Homo sapiens, UniProt Q9NSY1)","cell-free assay, competition with immobilised ligand",,100
"Receptor tyrosine-protein kinase erbB-4 (ERBB4, Homo sapiens, UniProt Q15303)","cell-free assay, competition with immobilised ligand",,96
"Serine/threonine-protein kinase NLK (NLK, Homo sapiens, UniProt Q9UBE8)","cell-free assay, competition with immobilised ligand",,86
"Cyclin-dependent kinase 19 (CDK19, Homo sapiens, UniProt Q9BWU1)",KINOMEscan competition,relative to: DMSO control,0
"RAC-beta serine/threonine-protein kinase (AKT2, Homo sapiens, UniProt P31751)","cell-free assay, competition with immobilised ligand",,100
"Activin receptor type-1B (ACVR1B, Homo sapiens, UniProt P36896)","cell-free assay, competition with immobilised ligand",,86
"Mitogen-activated protein kinase kinase kinase 10 (MAP3K10, Homo sapiens, UniProt Q02779)","cell-free assay, competition with immobilised ligand",,70
"Serine/threonine-protein kinase WNK1 (WNK1, Homo sapiens, UniProt Q9H4A3)","cell-free assay, competition with immobilised ligand",,93
"Serine/threonine-protein kinase 36 (STK36, Homo sapiens, UniProt Q9NRP7)","cell-free assay, competition with immobilised ligand",,97
"Mitogen-activated protein kinase kinase kinase 5 (MAP3K5, Homo sapiens, UniProt Q99683)","cell-free assay, competition with immobilised ligand",,98
"Serine/threonine-protein kinase B-raf (BRAF, Homo sapiens, UniProt P15056)","cell-free assay, competition with immobilised ligand",,91

# Series 3
# SMILES: CC(C)[C@H](CO)Nc1nc(Nc2cccc(Cl)c2)c2ncn(C(C)C)c2n1
target,test,test system,IC50
Trypanosoma brucei protein Tb427tmp.57.0008,"binding, kinobead competition",Trypanosoma brucei lysate,> 10 µM
"Eukaryotic translation initiation factor 3 subunit G (Homo sapiens, UniProt O75821)",,,> 10 µM
"Glycogen synthase kinase-3 alpha (GSK3A, Homo sapiens, UniProt P49840)",kinobead competition,MRC5 cell lysate,> 10 µM
"Serine/threonine-protein kinase ULK3 (ULK3, Homo sapiens, UniProt Q6PHR2)",,,> 10 µM
protein Tb427tmp.01.1475,kinobead TMT proteomics,"Trypanosoma brucei, cell lysate",> 10 µM
Trypanosoma brucei CAMKK Tb427tmp.02.4860,"binding, kinobead competition",Trypanosoma brucei lysate,5.82 µM
Trypanosoma brucei protein Tb427tmp.211.4513,"binding, kinobead competition",Trypanosoma brucei lysate,> 10 µM
Trypanosoma brucei protein Tb427tmp.02.2040,"binding, kinobead competition",Trypanosoma brucei lysate,> 10 µM

# Series 4 — effect on: enzyme activity; action: inhibitor; concentration: 0.5 µM; relative to: control
# Target: Tyrosine-protein kinase CSK (CSK, Homo sapiens, UniProt P41240)
# Chain of UniProt P41240 (whole entry, looked up): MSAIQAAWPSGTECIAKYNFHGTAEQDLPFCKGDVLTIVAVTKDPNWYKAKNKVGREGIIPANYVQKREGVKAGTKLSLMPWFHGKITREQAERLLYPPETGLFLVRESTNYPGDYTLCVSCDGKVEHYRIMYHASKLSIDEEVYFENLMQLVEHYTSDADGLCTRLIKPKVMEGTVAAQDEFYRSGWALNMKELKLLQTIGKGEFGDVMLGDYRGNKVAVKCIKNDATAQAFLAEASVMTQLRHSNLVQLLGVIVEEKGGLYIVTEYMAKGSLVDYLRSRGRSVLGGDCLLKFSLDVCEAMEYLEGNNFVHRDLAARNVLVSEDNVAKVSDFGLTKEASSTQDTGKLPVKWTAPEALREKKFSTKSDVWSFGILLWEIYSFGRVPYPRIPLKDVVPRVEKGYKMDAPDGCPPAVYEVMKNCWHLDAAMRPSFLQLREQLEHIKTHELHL
SMILES,remaining activity [%]
COc1cc2c(cc1OC)-c1[nH]nc(Nc3cccc(F)c3)c1C2,44.9
CN(C)C[C@H]1CCn2c(c(C3=C(c4cn(C)c5ccccc45)C(=O)NC3=O)c3ccccc32)C1,104
CCOc1nc(NC(=O)Cc2cc(OC)ccc2OC)cc(N)c1C#N,95.1
c1ccc(-c2cnc(Nc3ccc(OCCN4CCCC4)cc3)s2)cc1,89.9
CCN(CC)C(=O)c1ccc(Nc2nc(OCC3CCCCC3)c3[nH]cnc3n2)cc1,83.1
C[C@@H]1CCN(C(=O)CC#N)C[C@@H]1N(C)c1ncnc2[nH]ccc12,101
O=c1cc(-c2cccc3c2Sc2ccccc2S3)oc(N2CCOCC2)c1,95.7
Cn1nc2c3c(cccc31)C(=O)c1ccccc1-2,88.7
O=C1C(Cl)=C(N2C(=O)CCC2=O)C(=O)c2ccccc21,79.5
Nc1cccc(-c2cc3c(Oc4cccc(O)c4)ncnc3[nH]2)c1,43.6
Cc1nc2cc3nc(-c4cccs4)cnc3cc2n1C,101
COc1cc2ncnc(Nc3cccc(Cl)c3)c2cc1OC,91.1
CCN(CC)CCNC(=O)c1c(C)[nH]c(/C=C2\C(=O)Nc3ccc(F)cc32)c1C,90.2
Ic1cccc(CSc2nnc(-c3ccncc3)o2)c1,101
COc1cc2ncnc(Nc3ccc(O)c(Br)c3)c2cc1OC,91.6
c1ccc(-c2[nH]ncc2-c2ccnc3ccccc23)nc1,102
O=C(Nc1cccc(Nc2nccc(Nc3cccc(C(F)(F)F)c3)n2)c1)C1CC1,97.4
N#Cc1c(NC(=O)c2cccc3ccccc23)sc2c1CCCC2,91.5
O=C(NC(NC(=S)Nc1ccc(F)c([N+](=O)[O-])c1)C(Cl)(Cl)Cl)C(c1ccccc1)c1ccccc1 (stereo not drawn),99.3
Cc1cn(-c2cc(NC(=O)c3ccc(C)c(Nc4nccc(-c5cccnc5)n4)c3)cc(C(F)(F)F)c2)cn1,42.4
Cc1cc2ncc(-c3ccccc3)nc2cc1C,96.5
CCN(CC)CCNC(=O)c1c(C)[nH]c(/C=C2\C(=O)Nc3ccc(Cl)cc32)c1C,86.3
N#C/C(=C\c1ccc(O)c(O)c1)C(=O)NCc1ccccc1,101

# For quick reference, copied from above (series 4):
SMILES,remaining activity [%]
CCN(CC)CCNC(=O)c1c(C)[nH]c(/C=C2\C(=O)Nc3ccc(F)cc32)c1C,90.2
Ic1cccc(CSc2nnc(-c3ccncc3)o2)c1,101
COc1cc2ncnc(Nc3ccc(O)c(Br)c3)c2cc1OC,91.6
c1ccc(-c2[nH]ncc2-c2ccnc3ccccc23)nc1,102
O=C(Nc1cccc(Nc2nccc(Nc3cccc(C(F)(F)F)c3)n2)c1)C1CC1,97.4
N#Cc1c(NC(=O)c2cccc3ccccc23)sc2c1CCCC2,91.5
